Published values pooled from the literature.
Each numbered part is a random draw from the data of one study; scales do not carry over between parts.

Block 1
Target: Sal-like protein 4, full length isoform B (SALL4, Homo sapiens, UniProt Q9UJQ4-2, residues 1-616)
Technique: universal PBM
Form: double-stranded DNA, one strand shown
Matrix: in vitro
Tested at: not given
Setting: 8-mer, flanks averaged, mean of replicates
Direction: higher = stronger binding
Construct (chain): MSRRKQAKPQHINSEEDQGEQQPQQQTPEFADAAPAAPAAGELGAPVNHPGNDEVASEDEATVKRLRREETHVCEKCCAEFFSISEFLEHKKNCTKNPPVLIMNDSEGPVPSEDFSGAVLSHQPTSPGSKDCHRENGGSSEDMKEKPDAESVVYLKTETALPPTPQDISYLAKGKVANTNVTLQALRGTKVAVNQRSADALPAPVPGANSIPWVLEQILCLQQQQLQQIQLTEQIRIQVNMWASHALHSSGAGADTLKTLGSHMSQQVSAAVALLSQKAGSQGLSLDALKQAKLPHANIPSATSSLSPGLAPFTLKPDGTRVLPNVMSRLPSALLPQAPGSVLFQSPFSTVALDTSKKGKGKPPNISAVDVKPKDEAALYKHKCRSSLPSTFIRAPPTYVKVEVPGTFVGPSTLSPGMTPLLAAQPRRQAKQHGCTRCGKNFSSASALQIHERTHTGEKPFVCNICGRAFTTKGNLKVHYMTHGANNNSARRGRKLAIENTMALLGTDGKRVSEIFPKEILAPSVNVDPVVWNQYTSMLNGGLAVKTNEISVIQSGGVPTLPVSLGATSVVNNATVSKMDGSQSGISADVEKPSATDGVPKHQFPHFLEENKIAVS
For `GAAAGCGC`, the E-score was -0.162.
`CGAGGACA` has an E-score of -0.226.
For `AGTGACAA`, the E-score was 0.102.
`CACCTCGC` has an E-score of -0.258.
`CTAAAATC` has an E-score of -0.00983.
For `AAAGGTAA`, the E-score was 0.179.
`AGCTACAC` has an E-score of 0.111.
The E-score of `CTCTAGCC` is reported as -0.064.
For `AGCCGAAA`, the E-score was -0.0161.
With `ATATCCGG` the E-score was 0.0704.
`CGCTGTCC` has an E-score of -0.199.
With `ACATCCAA` the E-score was 0.0655.
`ACGTACCG` has an E-score of -0.0982.
`CAATGTCC` has an E-score of -0.125.
`CCAGGGGC` gave an E-score of -0.378.
With `ATATGAGG` the E-score was 0.24.

Block 2
Target: POU domain, class 5, transcription factor 1, POU domain (Pou5f1, Mus musculus, UniProt P20263, residues 131-289)
Chain of UniProt P20263 (131-289, looked up): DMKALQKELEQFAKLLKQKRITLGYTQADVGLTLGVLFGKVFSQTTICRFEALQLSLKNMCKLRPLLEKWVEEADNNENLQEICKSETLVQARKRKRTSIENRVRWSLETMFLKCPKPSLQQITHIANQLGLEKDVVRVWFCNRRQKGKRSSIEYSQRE
Technique: Spec-seq
Form: double-stranded DNA, one strand shown
Matrix: in vitro
Tested at: not given
Setting: whole probe, mean of replicates
Relative to: not given
Direction: lower = stronger binding
Constant ends, left off below: GAGTCGTCTCGTCAGCAC … CCGTAGAGCACTCAGGTC
`ATGCTCCG`: “relative binding energy” 0.815 ln ratio.
Under “relative binding energy”, `ATGCAAAA` is recorded as -1.29 ln ratio.
Under “relative binding energy”, `ATGTGCAT` is recorded as -0.134 ln ratio.
`ATGCCAAC`: “relative binding energy” 0.445 ln ratio.
Under “relative binding energy”, `ATACTGAT` is recorded as 0.0228 ln ratio.
`ATGCCAGG` — result for “relative binding energy”: 0.859 ln ratio.
Under “relative binding energy”, `ATGAAAAT` is recorded as -0.17 ln ratio.
Under “relative binding energy”, `ATCCAAAT` is recorded as 0.361 ln ratio.
`TACGTAAT` — result for “relative binding energy”: 0.715 ln ratio.
Under “relative binding energy”, `ATGCTCTG` is recorded as 0.931 ln ratio.
Under “relative binding energy”, `ATACAAAT` is recorded as -0.017 ln ratio.
`TGAGTAAT`: “relative binding energy” 0.744 ln ratio.
`TTTATAAT` — result for “relative binding energy”: 0.168 ln ratio.
For `ATGCTGCC`, “relative binding energy” read 1.02 ln ratio.
`ATGCTATC` — result for “relative binding energy”: 0.447 ln ratio.
Under “relative binding energy”, `ATGCAGGG` is recorded as 0.278 ln ratio.
Under “relative binding energy”, `ATCCACAT` is recorded as 0.464 ln ratio.
`ATGTGAAT`: “relative binding energy” -0.163 ln ratio.
Under “relative binding energy”, `GTATTAAT` is recorded as 0.158 ln ratio.
Under “relative binding energy”, `ATGCTCTC` is recorded as 0.812 ln ratio.

Block 3
Target: Histone acetyltransferase KAT6A, winged helix 2, GST fusion (KAT6A, Homo sapiens, UniProt Q92794, residues 85-181)
Technique: protein binding microarray
Form: double-stranded DNA, one strand shown
Matrix: in vitro
Tested at: not given
Setting: 8-mer, flanks averaged, mean of 2 arrays, mostly near background
Relative to: not given
Direction: higher = stronger binding
Target sequence (chain): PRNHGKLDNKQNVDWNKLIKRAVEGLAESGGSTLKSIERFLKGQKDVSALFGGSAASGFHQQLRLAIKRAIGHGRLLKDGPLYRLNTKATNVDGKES
`CAGAATGC` has an E-score of 0.102.
With `AGTAGTGC` the E-score was -0.0907.
For `TAAGCACA`, the E-score was 0.101.
`CACGCTAG` has an E-score of -0.0917.
`CGTGTGGC` has an E-score of -0.0355.
With `GCTTATAA` the E-score was -0.0184.
`CCCATCAG` gave an E-score of -0.17.
`CATTAAGA` has an E-score of -0.181.
With `CCGCCGCA` the E-score was 0.161.
The E-score of `CATTGCGA` is reported as -0.0333.
`GCATGGAC` has an E-score of 0.0662.
For `AAATCACG`, the E-score was 0.0562.
For `TCTGGTCA`, the E-score was -0.0016.
`GTTTCTTA` has an E-score of 0.127.
With `CCGTTAGC` the E-score was -0.0212.
`ACCGACTA` gave an E-score of -0.237.
For `TAAGCAGA`, the E-score was 0.0494.
`ACAAAAGA` has an E-score of -0.00421.
`CCCCTGGC` gave an E-score of 0.222.
`TACCCCTA` has an E-score of -0.242.
`GTGGACGA` gave an E-score of -0.0652.
For `AATCATGT`, the E-score was -0.193.
For `AGACGTAG`, the E-score was -0.0971.
`GGCCCACC` gave an E-score of 0.182.
The E-score of `CGCTCGAC` is reported as -0.154.

Block 4
Target: PABPC1L2, full length, GST fusion (mouse, UniProt A0ABA7IW68)
Technique: RNAcompete
Form: RNA
Matrix: in vitro
Tested at: 20 nM
Setting: 7-mer, probes averaged, single round
Relative to: mean of 7-mers
Direction: higher = stronger binding
For `CCUAGCU`, the 7-mer Z-score was -0.373.
For `ACAGCUC`, the 7-mer Z-score was -0.184.
With `CGCUAAA` the 7-mer Z-score was 0.566.
The 7-mer Z-score of `CUGCAAU` is reported as -0.135.
`ACGCAUC` has a 7-mer Z-score of -0.157.
`UUGGGCU` gave a 7-mer Z-score of -0.012.
With `UCUAUCC` the 7-mer Z-score was -0.32.
`AGGAGCC` has a 7-mer Z-score of -0.0301.
For `CGAGACU`, the 7-mer Z-score was -0.0518.
With `CAAUCUG` the 7-mer Z-score was -0.0881.
For `GAUGGUA`, the 7-mer Z-score was -0.0754.
The 7-mer Z-score of `UUACCUC` is reported as -0.298.
The 7-mer Z-score of `AAAAUUG` is reported as 6.96.
The 7-mer Z-score of `AAGUAGC` is reported as 0.157.
For `UUCUGUA`, the 7-mer Z-score was -0.304.
The 7-mer Z-score of `CCUUCAC` is reported as -0.376.
With `UAGCCAC` the 7-mer Z-score was -0.0681.
With `AGAAUAC` the 7-mer Z-score was -0.113.
`UACUCCU` gave a 7-mer Z-score of -0.286.
The 7-mer Z-score of `GGCCCGA` is reported as -0.0319.
`ACGGAGA` has a 7-mer Z-score of 0.0207.
For `UGUUUAC`, the 7-mer Z-score was -0.458.
The 7-mer Z-score of `CAAGCCU` is reported as -0.266.
`CAGCCAA` gave a 7-mer Z-score of -0.00108.
For `UGACAGA`, the 7-mer Z-score was -0.00652.

Block 5
Target: RNA binding protein fox-1 homolog 2, RRM domain, GST-SBP tag (RBFOX2, Homo sapiens, UniProt O43251-10, residues 100-194)
Technique: RNA Bind-n-Seq
Form: RNA
Matrix: in vitro
Tested at: 365 nM
Setting: natural RNA segment, single round, ends assumed
Relative to: no-protein control
Direction: higher = stronger binding
Constant ends, left off below: GGGAGUUCUACAGUCCGACGAUC … UGGAAUUCUCGGGUGCCAA
Construct (chain): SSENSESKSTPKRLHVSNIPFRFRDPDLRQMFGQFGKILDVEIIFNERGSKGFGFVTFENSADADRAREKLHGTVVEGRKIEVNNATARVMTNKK
`GCAUGUCCCCUAAUGGGGACUGGCUCUCGCUUCACCCCCAUGGGGUUCCUCUAAUAAGGACCAGCCUUCUACCCUGGUGGAGACCAAAGGCCUCCUCCCGUUUCUCAUCA`: “RBNS enrichment (R)” 1.79.
`CAGCUCUAGCUAUCCAGCAGACUUUUCAUUAUGACUUACAUGGCAGGAGCUCUAAUUAUGCUUUAAAAAUCUGUUGUGGAGAUUGCUUUAAAUGCUCCCUGCCUGGUGUG` — result for “RBNS enrichment (R)”: 0.553.
`UAUAAAUCUAAUUUUUCCAUAAAUUAGAUUUAUGAUAUUUUCAUAAAGCACUUGAUUAGUUUUUCAAGGCGUACCAUCACAAAGAUGCUUUCCUGCAGAGUUCUUUGUAU`: “RBNS enrichment (R)” 0.433.
For `GGUAGAAAUUAAUCUUAACAAGACUUUAUGAGGCAGGAUCAAAUCCUAGUGGGCCUGAGCAGGUUUCUUACCCUAAGUGUUUUCUCCCUUUUUACAAUCUCUGUCCAGCA`, “RBNS enrichment (R)” read 3.78.
`CUUAUGUGUCUACUUGGAGAGAAAAGAAUGUCUUUGAACAAAAUGGCUAACUUUCACAAAACUGUCUUGCCUCUUUUAAACAUUACACUUGAUACGAGAAAUAUGGCUUA`: “RBNS enrichment (R)” 0.406.
`AAGUCUGUGAGGGGAGAGGUUUUACAAGCCAGACAGGCCUGGGGGACUGCAGUCCCCAAGGAGACCCUGCCACAUGCUGGCCCUUUGAGUGAGAAUGCUGCAUCUUUCUA` — result for “RBNS enrichment (R)”: 2.21.
Under “RBNS enrichment (R)”, `UUUUAACCAACUGUGCCUCCCUACAUAUGACUCAUAUGAAGAGGUGCACAGGAUGCUACAGCUGGCCAUCAGUGAGGGUUGCGAGGGCUUUGGCAUGCUCUGACCGCUCC` is recorded as 2.36.
`CUGUCCAGGUUAGUUUACUCCUGACCACUAAUAGCAUUGUCAUUUGGGCUUUCUGUUGAAUGAAUCAACAAACCACAAUACUUCCUGGGACCUUUUGUACUUUAUUUGAA`: “RBNS enrichment (R)” 0.372.
For `CCCCAUGGAGAAUUUGACAUACCCUGGACUCCUGUGUGCCUCCUGCCAUCCCUGCACACAGCCUGGGGAGAAGCCUGUGCCUCCCCGUGUGGAGAGAAGGCAACCCCAGA`, “RBNS enrichment (R)” read 0.42.
`UGGUGCCCGGAGAUUGGACGGCCUGAUGCUCCCUCCCCUGCCCUGGUCCAGGGAAGCUGGCCGAGGGUCCUGGCUCCUGAGGGGCAUCUGCCCCUCCCCCAACCCCCACC`: “RBNS enrichment (R)” 0.581.
`CUUUCAGUUAUCCAUAAAUCUAAGCAUAACUGCUACCAUUUAUACAUGAGAAAAUGACAGAGGAACUAAUAUAAGAGCAGAUCUUGACCCUUGCUGGGUCACUAUAAUUC`: “RBNS enrichment (R)” 0.291.
`AGGUUGCGUUUUGGGGUUUGCCUUUUUUUGUUGUCGCUUAAAUGCAAUUUGGUUGUAAAGAUUUGAUUCCUUUGUGUUCAUCUGUUCCGCUUCUCAGCGGUCCAUCUCAG` — result for “RBNS enrichment (R)”: 0.325.

Repeated from above (block 2):
`TGAGTAAT`: “relative binding energy” 0.744 ln ratio.
Under “relative binding energy”, `ATACTGAT` is recorded as 0.0228 ln ratio.
Under “relative binding energy”, `GTATTAAT` is recorded as 0.158 ln ratio.
Under “relative binding energy”, `ATGTGCAT` is recorded as -0.134 ln ratio.
`ATGCCAAC`: “relative binding energy” 0.445 ln ratio.
Under “relative binding energy”, `ATGAAAAT` is recorded as -0.17 ln ratio.
`TTTATAAT` — result for “relative binding energy”: 0.168 ln ratio.
`ATGTGAAT`: “relative binding energy” -0.163 ln ratio.
Under “relative binding energy”, `ATACAAAT` is recorded as -0.017 ln ratio.
`ATGCTATC` — result for “relative binding energy”: 0.447 ln ratio.
